Experimental data from different studies.
± marks the error that the study gave.
Cell line: A549

CC1(C)[C@@H](O)CC[C@]2(C)[C@H]3C(=O)C=C4[C@@H]5C[C@@](C)(C(=O)O)CC[C@]5(C)CC[C@@]4(C)[C@]3(C)CC[C@@H]12
IC50 (cell growth or viability, MTT): > 40 µM

CC(C)CCc1c(O)cc2oc3cc(O)c(O)c(CCC(C)C)c3c(=O)c2c1O
IC50 (cell growth or viability; 48 h): 15.6 µM

CCCCSc1nc(N)c2c(F)c(C#N)c(F)c(Cl)c2n1
IC50 (cell growth or viability, MTT; 96 h): > 100 µM

CC(C)c1cccc(C(C)C)c1[N+]#[C][Pd-]([Cl])([Cl])=[C](Nc1cccc(CN[C](Nc2c(C(C)C)cccc2C(C)C)=[Au][Cl])c1)Nc1c(C(C)C)cccc1C(C)C
IC50 (cell growth or viability): 12 µM

O=C1c2cccc3cccc(c23)C12NC(Cc1ccc(O)cc1)C([N+](=O)[O-])C2c1ccc(Cl)cc1 (stereo not shown)
IC50 (cell growth or viability, MTT; 48 h): 54.8 µM

Cl.[Cl][Ru-]1[S+]=C(N2CCCC2)N[N+]1=Cc1ccc(N(c2ccc(-c3ccsc3)cc2)c2ccc(-c3ccsc3)cc2)cc1.c1ccccc1
IC50 (cytotoxicity, MTT; 24 h): 18.9 ± 5.8 µM

CN(C)c1cc[n+](Cc2cccc(C[n+]3ccc(N(C)C)cc3)c2)cc1
IC50 (cell growth or viability, MTT; 24 h): 757 µM

Cc1cc(C)c(N[C](NCc2ccc(N[C](Nc3c(C(C)C)cccc3C(C)C)=[Pt-]([Cl])([Cl])[C]#[N+]c3c(C(C)C)cccc3C(C)C)cc2)=[Au][Cl])c(C)c1
IC50 (cell growth or viability): > 100 µM

O=[N+]([O-])[O-].[NH3+][Pt-2]1([NH3+])[O]C(C(F)(F)F)=CC(c2ccccc2)=[O+]1 (stereo not shown)
IC50 (cell growth or viability, MTT): 1.3 µM

[Cl-].[Cl-].[Ru+2].c1ccc2nc(-c3ccc4ccccc4n3)ccc2c1.c1cnc2c(c1)ccc1cccnc12.c1cnc2c(c1)ccc1cccnc12
IC50 (cell growth or viability; 72 h, dark): 43.4 µM

C=C(C)[C@@H]1CC[C@]2(C(=O)O)CC[C@]3(C)[C@H](CC[C@@H]4[C@@]5(C)CC[C@H](O[C@@H]6O[C@@H](C)[C@H](O)[C@@H](O)[C@H]6OC)C(C)(C)[C@@H]5CC[C@]43C)[C@@H]12
IC50 (cell growth or viability, fluorescence; 48 h): 4.2 µM

O=C1Nc2ccccc2/C1=N/c1ccccc1C(=O)Nc1ccccc1
IC50 (cell growth or viability, MTT; 24 h): 23.8 µM

C1=CCCC=CCC1.F[P-](F)(F)(F)(F)F.[Pt+][c]1ccccc1P(=Nc1ccccc1)(c1ccccc1)c1ccccc1
IC50 (cell growth or viability, MTT; 24 h): 2.01 µM

O=C1C[C@@H](c2ccccc2)Oc2c(Cc3ccccc3O)c(O)cc(O)c21
IC50 (cell viability, MTT; 72 h): inactive

CC(C)=CCC1=C([O-])C(=O)c2ccccc2C1=O.CC(C)=CCC1=C([O-])C(=O)c2ccccc2C1=O.[Cu+2].c1ccc(-c2ccnc3c2ccc2c(-c4ccccc4)ccnc23)cc1
IC50 (cell viability, MTT; 24 h): 1.3 ± 0.3 µM

CCCC(CCC)C(=O)[O][Pt]1([OH])[O]C(=O)C(=O)[O]1.NC1CCCCC1N
IC50 (cell growth or viability): 60.3 µM

C=CC(=O)Nc1cc(Nc2nccc(-c3c(-c4cccc(-c5ccccc5)c4)n(C)c4ccccc34)n2)c(OC)cc1N(C)CCN(C)C
IC50 (cell growth or viability, MTT; 72 h): 0.4 µM

CCn1cc[n+](CC)c1
IC50 (cell growth or viability, crystal violet; 72 h): > 100 µM

COc1cc(C(=O)c2[nH]c(N)nc2-c2cccnc2)cc(OC)c1OC
IC50 (cell growth or viability, SRB; 24 h): 0.307 µM

CC1=CC(C)=[N+]2C1=C(CO)c1c(C)cc(C)n1[B-]2(C)C
IC50 (phototoxicity, resazurin; together with: 645 nm light, 9.00 J/cm2): > 100 µM

COC(=O)[C@@H](NC(=O)[C@@H](NC(=O)OC(C)(C)C)C(C)C)C(C)C
IC50 (cell growth or viability, SRB): 1 µM

O=C1N=C(N2N=C(c3cccs3)CC2c2ccc(F)cc2)S/C1=C\c1ccc(Cl)cc1 (stereo not shown)
IC50 (cell growth or viability, MTT): 33.8 µM

Oc1ccccc1-n1nc(-c2ccccc2)n[n+]1-c1ccccc1
IC50 (cell growth, resazurin): 320 ± 20 µM

Cc1ccc2ccc3ccc(C)nc3c2n1.Cc1ccc2ccc3ccc(C)nc3c2n1.Clc1ccc(-c2cc(-c3ccccn3)nn2-c2ccccc2)cc1.[Cl-].[Cl-].[Ru+2]
IC50 (cell growth or viability; 72 h, dark): 11.4 µM

O=C1c2ccc3c4ccc5c6c(ccc(c7ccc(c2c37)C(=O)N1CCN1CCCCC1)c64)C(=O)N(CCN1CCCCC1)C5=O
IC50 (cell growth or viability, SRB; 72 h): 52.5 µM

S=c1n(-c2ccccc2)c2c3ccccc3nc3[n+]2[n]1[Ir-3]12([S]3)([c]3ccc4ccccc4c3-c3sc4ccccc4[n+]31)[c]1ccc3ccccc3c1-c1sc3ccccc3[n+]12
IC50 (cell viability, MTT; irradiation 450 nm, 15.5 mW/cm^2, 15 min): 0.069 ± 0.02 µM

CC(=O)O[C@@H]1CC[C@@]2(C)[C@@H](CC[C@]3(C)[C@@H]2C(=O)C=C2[C@@H]4[C@@H](C)[C@H](C)CC[C@]4(C)CC[C@]23C)[C@@]1(C)C(=O)NCCNC(=O)CCCCC[P+](c1ccccc1)(c1ccccc1)c1ccccc1
IC50 (cell growth or viability, MTT; 48 h): > 30 µM

CC(C)=CCn1c2cccc(=O)c-2nc2ccccc21
IC50 (cell growth or viability, CCK-8; 72 h): 0.88 µM

N#Cc1c(F)c(Cl)c2nc(SCc3ccccc3)nc(N)c2c1F
IC50 (cell growth or viability, MTT; 96 h): 65 µM

Oc1cccc2[nH]c(/C(=N/OCc3ccccc3)c3cc4cccc(O)c4o3)nc12
IC50 (cell growth or viability, ATP luminescence; 72 h): 32.8 µM

COc1ccc(/N=N/C(=S)N2CCCCC2)cc1
IC50 (cell growth or viability, resazurin; 48 h): > 50 µM

CC(=O)O[C@@H]1CC[C@@]2(C)[C@@H](CC[C@]3(C)[C@@H]2C(=O)C=C2[C@@H]4[C@@H](C)[C@H](C)CC[C@]4(C)CC[C@]23C)[C@@]1(C)C(=O)NCCNC(=O)c1ccc(C)cc1
IC50 (cell growth or viability, MTT; 48 h): 16 µM

CCOC12C(O)C(OC)C3(O)CC(O)(C1C3OC(=O)c1ccccc1)C13C(OC)CC(O)C4(COC)CN(C)C1C2C(OC)C43 (stereo not shown)
IC50 (cell growth or viability, MTT): 17.8 µM

C=CC(=C)CC[C@]1(C)[C@H](C)CC[C@@]23C(=C[C@H](OC(=O)C(C)C)C[C@@H]12)[C@@H](OC(C)=O)O[C@H]3OC(C)=O
IC50 (cell growth or viability, SRB): > 40 µM

COc1c(O)cc2oc3cc(O)c(CC=C(C)C)c(O)c3c(=O)c2c1CC=C(C)C
IC50 (cell growth or viability; 48 h): 13.8 µM

CN(C)c1ccc(/C=C2\SC(N3N=C(c4cccs4)CC3c3ccc(F)cc3)=NC2=O)cc1 (stereo not shown)
IC50 (cell growth or viability, MTT): 24.1 µM

COc1ccc2c(c1)c(C)c1c(-c3ccccc3)c(S(=O)(=O)c3ccc(C)cc3)c3ccccc3n12
IC50 (cell growth or viability, MTT; 72 h): 14.6 µM

COc1c(C)c(O)c(C(=O)C=Cc2ccccc2)c(OC)c1C
IC50 (cell growth or viability, SRB; 72 h): 25.4 µM

COc1ccc(/C=C/C2=[N+]3C(=C(CO)c4c(C)cc(/C=C/c5ccc(OC)cc5)n4[B-]3(F)F)C(C)=C2C=O)cc1
IC50 (phototoxicity, resazurin; together with: 645 nm light, 9.00 J/cm2): 8.3 ± 0.4 µM

C[N+]1(C)CC[NH2+][Pt-2]1([OH])([OH])([Cl])[Cl]
IC50 (cell growth or viability, MTT; 96 h): 111 µM

C[C@]12CC/C(=N\OCCN3CCCCC3)C=C1CCC1C2CC[C@]2(C)/C(=C/c3ccccn3)CCC12 (stereo partly shown)
IC50 (cell growth or viability, MTT; 72 h): 21.3 µM

Cc1cc(C=O)cc(C)c1Oc1cc(Nc2ccc(C#N)cc2)nc2cnccc12
IC50 (48 h): > 127 µM

CC1CCc2c(sc3ncnc(Nc4ccc(Nc5ncnc6sc7c(c56)CCC(C)C7)cc4)c23)C1 (stereo not shown)
IC50 (cell growth or viability, MTT): 43.1 µM

C=C1C(=O)[C@@]23CC[C@@H]4C(C)(C)CCC[C@@]4(CO)[C@@H]2[C@@H](O)C[C@@H]1C3
IC50 (cell growth or viability, MTT): 13 µM

Cc1c(C)c(C)[c-](C)c1C.O=Cc1c[c-]c(-c2ccccn2)cc1.[Cl-].[Ir+3]
IC50 (SRB; 24 h, 72 h recovery): 15.8 ± 0.4 µM

Cc1cc(C)c([N+]#[C][Pt-2]([Cl])([Cl])[C]#[N+]c2c(C)cc(C)cc2C)c(C)c1
IC50 (cell growth or viability): > 100 µM

COc1ccc(NC(=O)N/N=C2\CC3(CCN(C)CC3)Oc3ccccc32)cc1
IC50 (cell growth or viability, MTT; 48 h): 29.4 µM

C=CC(=O)Nc1cc(Nc2nccc(-c3c(-c4ccc5c(c4)OCO5)n(C)c4ccccc34)n2)c(OC)cc1N(C)CCN(C)C
IC50 (cell growth or viability, MTT; 72 h): 1.11 µM

COc1cc(/C=C/C(=O)CC(C)=O)ccc1O
IC50 (cell growth or viability, MTT; 48 h): 25 µM

N#Cc1cccc(-c2ccc(=O)n(Cc3cccc(-c4ncc(OCC5CCN(CCCCCCCC(=O)Nc6cccc7c6C(=O)N(C6CCC(=O)NC6=O)C7=O)CC5)cn4)c3)n2)c1 (stereo not shown)
IC50 (cell growth or viability, CCK-8; 72 h): 8.7 µM

CC(C)c1cccc(C(C)C)c1[N+]#[C][Pd-2]([Cl])([Cl])[C]#[N+]c1c(C(C)C)cccc1C(C)C
IC50 (cell growth or viability): > 100 µM

CC(=O)O[C@@H]1CC[C@@]2(C)[C@@H](CC[C@]3(C)[C@@H]2C(=O)C=C2[C@@H]4[C@@H](C)[C@H](C)CC[C@]4(C)CC[C@]23C)[C@@]1(C)C(=O)NCCNC(=O)CCCCCCCCCC[P+](c1ccccc1)(c1ccccc1)c1ccccc1
IC50 (cell growth or viability, MTT; 48 h): 1.32 µM

CCN1CCC2(CC1)C/C(=N\NC(=O)Nc1ccccc1)c1ccccc1O2
IC50 (cell growth or viability, MTT; 48 h): 1.9 µM

C[OH+][Cu-2]12[O]C(c3cn(-c4ccccc4)nc3-c3ccc(Br)cc3)=N[N+]1=C(C)c1c(cc(C)oc1=O)[O]2 (stereo not shown)
IC50 (cell growth or viability, MTT; 48 h): 7.06 µM

S=c1[nH]c(=S)c2sc3sc4c(=S)[nH]c(=S)[nH]c4c3c2[nH]1
IC50 (cell growth or viability, MTT): 5.67 µM
